Results gathered from unrelated publications.
Parts stem from different laboratories: compare values within a part only. Positions count from the first letter of the parent shown.

Set 1 — target: CCNE1, cyclin fold, Cln2 fusion (human); method: yeast growth competition, sequencing; sample: yeast; setting: weak parent motif; reference: not given; direction: higher = stronger binding
Parent: EXO1 docking peptide (human); KPECGRVQRAIFQ
Change	normalised enrichment score
KPECGRVQRAAFQ [I11A]	-0.0111
KPECGRAQRAIFQ [V7A]	0.511
KPECARVQRAIFQ [G5A]	-0.201
KPACGRVQRAIFQ [E3A]	0.399
APECGRVQRAIFQ [K1A]	0.059
KPECGRVQRAIAQ [F12A]	0.0918

Set 2 — method: RNA Bind-n-Seq; form: RNA; sample: in vitro; concentration: 365 nM; reference: no-protein control; direction: higher = stronger binding
Target: RNA binding protein fox-1 homolog 2, RRM domain, GST-SBP tag (RBFOX2, Homo sapiens, UniProt O43251-10, residues 100-194)
Setting: natural RNA segment, single round, ends assumed
All sequences stand within: GGGAGUUCUACAGUCCGACGAUC … UGGAAUUCUCGGGUGCCAA
Residues (chain): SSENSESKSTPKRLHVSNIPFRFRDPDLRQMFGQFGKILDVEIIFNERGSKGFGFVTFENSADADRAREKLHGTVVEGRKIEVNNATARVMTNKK
Strand	RBNS enrichment (R)
UGUUCAUGGCCUGUAAGUGUACCCCAAGCACUGUGGGCGGGAGCUACCACUUCUUUGAGAACCUCUGCUUUACGGUUGACACUGAUGCUUAUCUUUCUCUGGAGUUACGG	0.324
GUUUGUAGUUAAGGUGUCUGGGGUAACAGAUAACAUGGGCCUGAGGGAGCCCUCAGGUCUAUAGGAAAGGCCCCUCUUAAGACAGAAACGGUUUAACAGCAAGGGUACAA	0.977
UGUGUGAUAACUGCCAAAACCGUAUUUUCUAAGACUAAGCAAAAUAAAUGCAUUACUCUUUGGUAAAGCCUAGUUGUACUCUCACAUUUCUAAACAAGGCUCCUAACUAG	0.578
UGGUGAGCCACAAAUUACAUUGAUUAUGUUGAACUUAUUAUUCUUCAAAGAAAAUAUUUUAAACCUGUGAAAACUCACUAAUUUUGUUAAUAUUUAUCAUGAUGGCAUCA	0.696
GGCCACUCUCACUCCAGUGCCCCCCAGAGACCCCAGCCAGAUGGCUCAGACUGUCCUGCAUGAAGGCAGGAGAGCUGAACUCUCUCUGGUCCUUGUCUUUCCCAAUCUUU	0.564
UGGUGAUUUCUGAUGUAAAUAAUGUUGUUUAUAUAGUAUGUAUUAAAUUUUCCUACAUUGUAAAACUCUGUACUUUUUUGAUUCUUGUAUAUUAAAAAGUGUUACUAAGG	2.39
AUUUCUUGGUCAUUUCUCAACCUGAGGUGCAUAGCAUAUUCCCACAUUCCAUUUUGGUAGCAAUAUGCAGUCCGAAUGCAUGCAUUCAUAAGUCCAUUUGGCCAAGUCAG	1.06
ACCUCAGUUGUCCUGCCCUGUGGAAUGGGCUCAAGGUUCCUGAGACACCCGAUUCCUGCCCAAACAGCUGUAUUUAUAUAAGUCUGUUAUUUAUUAUUAAUUUAUUGGGG	0.289
ACUGUACCUACCAUCUGCAUUGAGCAGAAAGACUUUUGUUUUACUGAAGACAAAAGAUGUUUUUAUUUUAGACCCAGAAGAGAGGAGUUUGCUCUGAAUUUGUAAAUAAG	1.02
AUUUAGGCUUGACUGUUUUAAAACACCAUAAUGAAUGUAUAAUUAAUUUAUGUUAAAGUAUUAACCCUUUGUCACAAAGGAAUGGUAAUGUGAUUGGCUGCCUGUUAGCC	1.62
AUUGUGUUUUUAUGCUGUUUUAUACUUUUUUAUGAGUUAUGAUAGCAGCAAUUAAGUUGUUUGUAUUUUGCUUAACUAAAACAAAAAUGCUUUUAUCUUGCUAUAGAAUA	1.01

Set 3 — method: RNA Bind-n-Seq; form: RNA; sample: in vitro; concentration: 1 µM; setting: whole 134-nt RNA, ends assumed; together with: 150 mM KCl; reference: input library; direction: higher = stronger binding
Target: Ras GTPase-activating protein-binding protein 1, RRM domain (G3BP1, Homo sapiens, UniProt Q13283)
Sequence of UniProt Q13283 (whole entry, looked up): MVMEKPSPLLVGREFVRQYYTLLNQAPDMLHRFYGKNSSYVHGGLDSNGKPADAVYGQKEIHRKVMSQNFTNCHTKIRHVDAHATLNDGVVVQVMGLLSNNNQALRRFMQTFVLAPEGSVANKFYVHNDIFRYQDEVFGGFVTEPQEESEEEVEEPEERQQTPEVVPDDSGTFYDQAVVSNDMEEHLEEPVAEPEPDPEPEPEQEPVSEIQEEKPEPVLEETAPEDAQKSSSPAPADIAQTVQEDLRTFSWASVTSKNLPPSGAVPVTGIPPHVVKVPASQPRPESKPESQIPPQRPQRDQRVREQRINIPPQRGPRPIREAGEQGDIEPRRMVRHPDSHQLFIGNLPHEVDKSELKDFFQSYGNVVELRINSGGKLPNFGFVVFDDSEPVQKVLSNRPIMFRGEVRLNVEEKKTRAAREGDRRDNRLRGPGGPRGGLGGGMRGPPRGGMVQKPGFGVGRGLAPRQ
All sequences stand within: GGGAGUUCUACAGUCCGACGAUC … UGGAAUUCUCGGGUGUCAAGG
Strand	log2 enrichment
AGUCCUGUGCUACACAUCGUAUGUACCGAAUCGGGGUGGGGUUUUUUUGGGGUGGGGAAAGUAUUAUGUUACGCCGUUCGGAUCUGCACU	1.19
UCAAGUCCUGUGCUACACAUCGUAUGUACCGAAUCGGUUUGGGGUUUGGGUUUGGAAAGUAUUAUGUUACGCCGUUCGGAUCUGCACUUC	-0.302
CCUCAAGUCCUGUGCUACACAUCGUAUGUACCGAAUCGGAGGUUUGGUUUGGAAAGUAUUAUGUUACGCCGUUCGGAUCUGCACUUCCAG	-0.27
UCCUGUGCUACACAUCGUAUGUACCGAAUCGGGGUUUUUUUGGGGUUUGGGGUUUGGGGAAAGUAUUAUGUUACGCCGUUCGGAUCUGCA	1.11
UUCCUCAAGUCCUGUGCUACACAUCGUAUGUACCGAAUCGGAGGAGGAGGGAAAGUAUUAUGUUACGCCGUUCGGAUCUGCACUUCCAGC	-0.245
AGUCCUGUGCUACACAUCGUAUGUACCGAAUCGGGUUUUUUUGGGUUUGGGAAAGGGAAAGUAUUAUGUUACGCCGUUCGGAUCUGCACU	0.313
CCUCAAGUCCUGUGCUACACAUCGUAUGUACCGAAUCGGUGGGGUGGGGUGGGAAAGUAUUAUGUUACGCCGUUCGGAUCUGCACUUCCA	0.265
GAGGAGAUAAUCUCGGAAAAGUUACGGAAACCUGGGAAGUCGGCGAAACCCUACGUUCGGGUGUUUUCGGAAGCAGCCGAAGCGGCCGCC	-0.202
AGUCCUGUGCUACACAUCGUAUGUACCGAAUCGGCCCCCGGGGCCCCCGGCCCCCGGAAAGUAUUAUGUUACGCCGUUCGGAUCUGCACU	-0.426
CACAGACAACACGCACCCACACAGACACAGAGGGAAGGGGUUGGGAUGGGGACAGGGUGAACAGCAGGGCGGGGUAGGACCCCAGCCCCU	-0.0541
CAAGUCCUGUGCUACACAUCGUAUGUACCGAAUCGGGUUUGGGUUUUUGGGUGGGAAAGUAUUAUGUUACGCCGUUCGGAUCUGCACUUC	0.605

Mixed results
Molecule	target	test	system	setting	how to read	measurement	value
PhoQ, residues 284 288 289 292 302 303 AGGCYF	PhoP, residues 12 14 15 18 19 MHTVL (Escherichia coli, UniProt P23836)	Sort-seq, refers to: YFP reporter	E. coli	PhoQ-PhoP variant library, together with: 10 µM Mg2+	reference: high Mg2+ state, higher = stronger signaling	fold induction	18.5

For quick reference, copied from above (set 3):
Strand	log2 enrichment
UUCCUCAAGUCCUGUGCUACACAUCGUAUGUACCGAAUCGGAGGAGGAGGGAAAGUAUUAUGUUACGCCGUUCGGAUCUGCACUUCCAGC	-0.245
